Measured values gathered from unrelated publications.
Compare with care: the assays were run in different laboratories. Numbers after ± are the reported error.

SMILES	assay	test system	conditions	how to read	quantity	result
CC[C@H](C)[C@@H]1NC(=O)[C@H](CCCCN)NC(=O)[C@H](CCCCN)NC(=O)[C@H](C)NC(=O)[C@H](C(C)C)NC(=O)[C@H](C)NC(=O)[C@H](CC(C)C)NC(=O)[C@H](CC(C)C)NC(=O)[C@H](C)NC(=O)[C@H](CCCCN)NC(=O)[C@H](CC(C)C)NC(=O)[C@H](CC(N)=O)NC(=O)[C@H](CC(C)C)NC(=O)[C@@H](N)CSSC[C@@H](C(N)=O)NC(=O)[C@H](CC(C)C)NC1=O	circular dichroism	10 mM ammonium acetate	100 µM, 20 °C	–	α-helix content	28%
CCCCCc1cc(OC(=O)C(NC(=O)CCC(=O)O)C(C)C)c2c(c1)OC(C)(C)C1CCC(C)=CC21 (centres unmarked)	shake-flask	aqueous solution	24 h, 25 °C	relative to: THC	solubility increase	96 fold
N[C@]1(c2ccccc2Cl)CCC[C@H](O)C1=O	–	Wistar rat	intravenous, 20 mg/kg	–	apparent volume of distribution	7.35 ± 0.736 L/kg
CCCCCc1cc(O)c2c(c1)OC(C)(C)C1CCC(C)=CC21 (single isomer, unassigned; (-))	–	human kidney microsome incubation mixture	–	–	unbound fraction	0.052 ± 0.005
COc1cccc(C2(O)CCCCC2CN(C)C)c1.Cc1ccc(-c2cc(C(F)(F)F)nn2-c2ccc(S(N)(=O)=O)cc2)cc1.Cl (racemic)	–	healthy human, fasted	oral, dose not given	–	subjects with treatment-related adverse events	35.3%
CN(C)CC1CCCCC1(O)c1cccc(O)c1 (centres unmarked)	–	Caco-2	50 µM, 3 h, pH 7.4	–	Papp A→B	15.2 ×10⁻⁶ cm/s
Cc1ccc(NS(=O)(=O)c2c(C(=O)N3CCCCCC3)c(C)n(C)c2C)c(Cl)c1	–	ICR mouse, male, plasma	intraperitoneal, dose not given	–	Tmax	~12 min
COc1ccc(-n2cc(C(=O)N3C[C@]4(OC(=O)c5ccccc5NC(C)=O)CC[C@H](OC)[C@@]56[C@@H]4C[C@@H]([C@@H]35)[C@@]3(O)C[C@H](OC)[C@H]4C[C@@H]6[C@]3(O)[C@H]4OC)nn2)cc1	–	Sprague-Dawley rat, plasma	intravenous, 2 mg/kg	–	AUC(0-t)	37.8 ng·h/mL

For quick reference, copied from above:
SMILES	assay	test system	conditions	how to read	quantity	result
N[C@]1(c2ccccc2Cl)CCC[C@H](O)C1=O	–	Wistar rat	intravenous, 20 mg/kg	–	apparent volume of distribution	7.35 ± 0.736 L/kg
